{"data": "Experimental data gathered from unrelated publications", "target": "Mu-type opioid receptor (OPRM1, Homo sapiens, UniProt P35372)", "note": "± gives the spread as reported.", "sequence of UniProt P35372 (whole entry, looked up)": "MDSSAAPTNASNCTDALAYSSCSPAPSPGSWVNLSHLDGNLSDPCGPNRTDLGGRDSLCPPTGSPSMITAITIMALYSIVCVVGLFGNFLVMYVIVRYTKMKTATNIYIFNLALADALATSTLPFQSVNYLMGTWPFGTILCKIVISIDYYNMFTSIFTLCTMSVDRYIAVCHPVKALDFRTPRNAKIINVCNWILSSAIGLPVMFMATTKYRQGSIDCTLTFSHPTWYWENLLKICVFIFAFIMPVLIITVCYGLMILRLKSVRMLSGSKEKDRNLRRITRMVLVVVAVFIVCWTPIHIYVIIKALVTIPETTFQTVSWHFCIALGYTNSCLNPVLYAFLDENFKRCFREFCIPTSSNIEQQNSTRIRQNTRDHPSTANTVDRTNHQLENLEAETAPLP"}
{"test": "agonist response, antagonist", "setting": "10 µM", "how to read": "baseline: agonist control", "measurement": "inhibition", "value": "13%", "SMILES": "COc1cc(Cl)c(C(=O)N[C@@H](CN[C@H]2CC[C@@H](N)CC2)Cc2ccc(C#N)cc2)cc1-c1ccc(CN[C@H](C)c2ccc(C)cc2)o1"}
{"measurement": "Hill coefficient", "value": 0.9, "SMILES": "CCCC[C@H](NC(=O)[C@H](C)c1c(C)[nH]c2ccc(O)cc12)c1ncc(-c2cc3ccccc3nc2OC)[nH]1"}
{"test": "PDSP screening", "measurement": "off-target affinity", "value": "inactive", "SMILES": "CCCC(CCC)c1nc2c(Nc3ccc(C#CCCCCCCCCN)cc3)nc3ccccc3c2[nH]1"}
{"test": "agonist", "test system": "CHO expressing OPRM1", "setting": "10 µM, with: forskolin", "measurement": "intracellular cAMP level", "value": "no effect", "SMILES": "Cc1c(C(=O)NN2CCOCC2)nn(-c2ccc(Cl)cc2Cl)c1-c1ccc(I)cc1"}
{"setting": "10 µM", "measurement": "inhibition", "value": "7.93%", "SMILES": "CCS(=O)(=O)c1nc(S(=O)(=O)c2ccccc2Cl)c(N2CCN(C)C(=O)[C@H]2C)s1"}
{"test": "binding", "setting": "10 µM", "measurement": "inhibition", "value": "-10.4%", "SMILES": "CN(C(=O)n1cnc(-c2ccc[n+]([O-])c2)c1)C1CCCCC1"}
{"test": "radioligand binding, radioligand displacement", "setting": "10 µM, mean of replicates", "measurement": "inhibition", "value": "5.81%", "SMILES": "O=C(NO)c1ccc(CN2CCCCc3ccccc32)c(F)c1"}
{"test": "β-arrestin2 recruitment, antagonist, BRET1", "test system": "HEK-293T", "setting": "with: DAMGO EC80", "how to read": "baseline: naloxone", "measurement": "Imax", "value": "100 ± 3.3%", "SMILES": "COc1cc(CNCCc2ccccc2)ccc1Oc1ccc(C(N)=O)cn1"}
{"test": "cell-based", "setting": "10 µM", "how to read": "baseline: control", "measurement": "response", "value": "> 50%", "SMILES": "NC(=O)c1nnn(Cc2cc(Cl)c(C(=O)c3ccc(Cl)cc3)c(Cl)c2)c1N"}
{"test": "radioligand binding, PDSP competition binding", "setting": "10 µM", "measurement": "inhibition", "value": "< 50%", "SMILES": "OCCCN1CC[C@@H]2C[C@H]1c1cc(-c3ccc(C(F)(F)F)cc3)ccc12"}
{"note": "For quick reference, copied from above:"}
{"test": "cell-based", "setting": "10 µM", "how to read": "baseline: control", "measurement": "response", "value": "> 50%", "SMILES": "NC(=O)c1nnn(Cc2cc(Cl)c(C(=O)c3ccc(Cl)cc3)c(Cl)c2)c1N"}
